Results pooled from the literature.
Lines come from different studies, so protocols differ.

CC(C)C[C@H]1NC(=O)[C@H](NC(=O)CN)CSSC[C@H]2NC(=O)[C@H]3CSSC[C@H](C(=O)N[C@H](CC(N)=O)C(=O)N[C@H](Cc4ccccc4)C(=O)N[C@H](CO)C(=O)N[C@H](Cc4ccccc4)C(N)=O)NC(=O)[C@@H](CC(C)C)NC(=O)[C@@H](CCCCN)NC(=O)[C@@H](Cc4ccccc4)NC(=O)[C@@H](CC(C)C)NC(=O)[C@@H](CCCCN)NC(=O)[C@@H](CO)NC(=O)[C@@H](CSSC[C@@H](NC(=O)[C@@H](CCCCN)NC(=O)[C@@H](Cc4c[nH]c5ccccc45)NC(=O)[C@@H](Cc4c[nH]c5ccccc45)NC(=O)[C@@H](Cc4ccccc4)NC(=O)[C@@H](CCC(=O)O)NC1=O)C(=O)N[C@H](CC(N)=O)C(=O)N1CCC[C@@H]1C(=O)N[C@H](CC(N)=O)C(=O)N[C@H](CC(=O)O)C(=O)N[C@H](CC(=O)O)C(=O)N[C@H](CCCCN)C(=O)N3)NC(=O)[C@@H](CCCCN)NC(=O)[C@@H](CC(C)C)NC(=O)[C@@H](CCCCN)NC(=O)[C@H]1CCCN1C(=O)[C@@H](CCCNC(=N)N)NC2=O has a half-life of 168 h (LC-MS/MS; D2.mdx mice; subcutaneous, 10 mg/kg, over four weeks).
COc1cccc2[nH]c(C(=O)N[C@@H](CC(C)C)C(=O)N[C@@H](C[C@@H]3CCNC3=O)C(=O)c3nc4ccccc4s3)cc12 has a half-life of less than 0.383 h (Jcl:ICR mice, female; intravenous, 2.0 mg/kg).
CN(CC(=O)N(Cc1ccc(C2CCCCC2)cc1)c1ccc(C(=O)O)cc1)S(=O)(=O)c1c(F)c(F)c(F)c(F)c1F has a half-life of 0.25 h (CD-1 mice, plasma; intraperitoneal, 20 mg/kg).
CCC[C@@H]1O[C@@H]2C[C@H]3[C@@H]4C[C@H](F)C5=CC(=O)CC[C@]5(C)[C@@]4(F)[C@@H](O)C[C@]3(C)[C@]2(C(=O)CO)O1 gave a half-life of 0.33 h (item: parent steroid; CD1 mice, plasma; intravenous, 0.15 mg/kg, with: budesonide 0.2 mg/kg).
With CC(C)[C@H]1NC(=O)C[C@H]2/C=C/CCSSC[C@@H](NC1=O)C(=O)N[C@H](Cc1cccc3ccccc13)C(=O)NCC(=O)O2 the half-life was no more than 1 h (BALB/cAJcl-nu/nu mice, blood; dose not given, intravenous, intraperitoneal and oral).
CCn1ccc(-c2cc(-c3cnn(C)c3)cc([C@@H](C)NC(=O)c3cc(OCCN(C)C)ccc3C)c2)n1 has a half-life of 2.01 h (C57BL/6J mice, male, plasma; oral, 50 mg/kg).
For CC(C)C[C@H](NC(=O)c1cc2c(OC(F)(F)F)cccc2[nH]1)C(=O)N[C@@H](C[C@@H]1CCNC1=O)C(=O)c1nc2ccccc2s1, the half-life was 0.833 to 1 h (Jcl:ICR mice, female; intravenous, 2.0 mg/kg).
For Cc1cc(Oc2nc(N3CC[C@@H](c4ccncc4)C3)ncc2F)[nH]n1, the half-life was 0.76 h (BALB/c mice female; oral, 5 mg/kg).
CSCC[C@H](N)C(=O)N[C@@H](Cc1c[nH]cn1)C(=O)N[C@@H](CO)C(=O)N[C@@H](CC(=O)O)C(=O)N[C@@H](C)C(=O)N[C@H](C(=O)N[C@@H](Cc1ccccc1)C(=O)N[C@H](C(=O)N[C@@H](CC(=O)O)C(=O)N[C@@H](CCC(N)=O)C(=O)N[C@@H](Cc1ccc(O)cc1)C(=O)N[C@H](C(=O)N[C@@H](CCCNC(=N)N)C(=O)N[C@@H](CC(C)C)C(=O)N[C@@H](CCCNC(=N)N)C(=O)N[C@@H](CCCCN)C(=O)N[C@@H](CCC(N)=O)C(=O)N[C@@H](CC(C)C)C(=O)N[C@@H](C)C(=O)N[C@@H](C)C(=O)N[C@@H](CCCCN)C(=O)N[C@@H](CCCCN)C(=O)N[C@@H](Cc1ccc(O)cc1)C(=O)N[C@@H](CC(C)C)C(=O)N[C@@H](CCC(N)=O)C(=O)N[C@@H](CO)C(=O)N[C@@H](CC(C)C)C(=O)N[C@@H](CCCCN)C(=O)N[C@@H](CCC(N)=O)C(=O)N[C@@H](CCCCN)C(=O)N[C@@H](CCCNC(=N)N)C(=O)N[C@@H](Cc1ccc(O)cc1)C(=O)O)[C@@H](C)O)[C@@H](C)O)C(C)C has a half-life of 1.98 h (db/db mice, male, blood; intravenous, 1.0 mg/kg).
C=Cc1c(C)c2cc3nc(c(CC(=O)O)c4[nH]c(cc5nc(cc1[nH]2)C(C)=C5CC)c(C)c4C(=O)O)[C@@H](CCC(=O)NCCCC[C@H](NC(C)=O)C(=O)N[C@@H](Cc1ccccc1)C(=O)N[C@@H](Cc1ccccc1)C(=O)N[C@H](C(=O)N[C@@H](CC(C)C)C(=O)N[C@@H](CCCCN)C(=O)N[C@@H](CO)C(=O)NCC(=O)N[C@@H](CCC(N)=O)C(=O)N[C@@H](Cc1ccc(O)cc1)C(=O)N[C@@H](C)C(=O)N[C@@H](CO)C(=O)N[C@@H](Cc1ccc(O)cc1)C(=O)N[C@@H](Cc1c[nH]cn1)C(=O)N[C@@H](CS)C(=O)N[C@@H](Cc1c[nH]c2ccccc12)C(=O)N[C@@H](CS)C(=O)N[C@@H](Cc1c[nH]c2ccccc12)C(=O)N[C@@H](CCCNC(=N)N)C(=O)N[C@@H](CC(=O)O)C(=O)N1CCC[C@H]1C(=O)NCC(=O)N[C@@H](CCCNC(=N)N)C(=O)N[C@@H](CO)C(=O)NCC(=O)NCC(=O)N[C@@H](CO)C(=O)N[C@@H](CCCCN)C(N)=O)C(C)C)[C@@H]3C gave a half-life beta of 22.2 h (tumour-free mice, plasma; iv, 13 mg/kg).
The half-life of O=C(CN1CCN(c2cc3c(cc2F)c(=O)c(C(=O)O)cn3C2CC2)CC1)Nc1ccc(Cl)cc1 is reported as 5.68 h (female BALB/c mice, plasma; intravenous, 1.25 mg/kg).

A few entries again:
CCn1ccc(-c2cc(-c3cnn(C)c3)cc([C@@H](C)NC(=O)c3cc(OCCN(C)C)ccc3C)c2)n1 has a half-life of 2.01 h (C57BL/6J mice, male, plasma; oral, 50 mg/kg).
C=Cc1c(C)c2cc3nc(c(CC(=O)O)c4[nH]c(cc5nc(cc1[nH]2)C(C)=C5CC)c(C)c4C(=O)O)[C@@H](CCC(=O)NCCCC[C@H](NC(C)=O)C(=O)N[C@@H](Cc1ccccc1)C(=O)N[C@@H](Cc1ccccc1)C(=O)N[C@H](C(=O)N[C@@H](CC(C)C)C(=O)N[C@@H](CCCCN)C(=O)N[C@@H](CO)C(=O)NCC(=O)N[C@@H](CCC(N)=O)C(=O)N[C@@H](Cc1ccc(O)cc1)C(=O)N[C@@H](C)C(=O)N[C@@H](CO)C(=O)N[C@@H](Cc1ccc(O)cc1)C(=O)N[C@@H](Cc1c[nH]cn1)C(=O)N[C@@H](CS)C(=O)N[C@@H](Cc1c[nH]c2ccccc12)C(=O)N[C@@H](CS)C(=O)N[C@@H](Cc1c[nH]c2ccccc12)C(=O)N[C@@H](CCCNC(=N)N)C(=O)N[C@@H](CC(=O)O)C(=O)N1CCC[C@H]1C(=O)NCC(=O)N[C@@H](CCCNC(=N)N)C(=O)N[C@@H](CO)C(=O)NCC(=O)NCC(=O)N[C@@H](CO)C(=O)N[C@@H](CCCCN)C(N)=O)C(C)C)[C@@H]3C gave a half-life beta of 22.2 h (tumour-free mice, plasma; iv, 13 mg/kg).
